Measurements pooled from the literature.
Compare with care: the assays were run in different laboratories. ± gives the spread as reported.

O=C(N[c-]1cccc1)OCc1ccc(F)cc1.[Fe+2].c1cc[cH-]c1  solubility (absorbance; PBS; pH 7.4, 1% DMSO): 49 ± 4 µM
O=C(NC1(C(F)(F)F)CCC1)c1ccccc1  solubility (PBS; pH 7.4, 25 °C, 2% DMSO): 342 µM
O=C1Nc2ccc(I)cc2C1=Cc1ccc[nH]1  solubility (AlphaScreen buffer; aqueous buffer, 7.5% DMSO; pH 7.3): 2.9 ± 0.8 µM
O=C(OCc1ccc(F)cc1)N(Cc1cccc(CN2CCCCC2)c1)[c-]1cccc1.[Fe+2].c1cc[cH-]c1  solubility (absorbance; RPMI medium with 5% FBS; 1% DMSO): 102 ± 28 µM
CSCc1cn(-c2cccc(C(=O)N3CCC(c4nc(-c5ccccc5)n[nH]4)CC3)c2)nn1  solubility (UV; DPBS; 18 h, room temperature): 75.4 ± 4.7 µM
C#CCOc1ccc(/C=C2\SC(=O)N(CC(=O)NCc3ccccc3)C2=O)cc1  solubility (shake-flask HPLC; PEG 400; 40 h, 25 °C): 30000 µg/mL
C#CCN(C(=O)OCc1ccc(C(=O)N(C)C)cc1)[c-]1cccc1.[Fe+2].c1cc[cH-]c1  solubility (absorbance; PBS; pH 7.4, 1% DMSO): 117 ± 3 µM
COc1cc(OC)c(/N=N/c2ccc(C(=O)NO)cc2)c(OC)c1  solubility (water with 2% DMSO): > 200 µM
NS(=O)(=O)c1ccc(N/N=C2\C(=O)Nc3ccc(C(=O)NCCc4c[nH]cn4)cc32)cc1  solubility (aqueous buffer; pH 7.4): < 1.62 µg/mL
O=C(Nc1ccc2ccccc2c1)C1CC2(CCC2)C1  solubility (kinetic solubility; PBS with 2% DMSO; 2 h, pH 7.4, 25 °C, single incubation): 7 µM
O=C1Nc2cc(Cl)c(Cl)cc2C1=Cc1cc(Br)c(O)c(Br)c1  solubility (AlphaScreen buffer; aqueous buffer, 7.5% DMSO; pH 7.3): 42.9 ± 7.3 µM
CC(C)C(C)NC(=O)COC(=O)c1cc2c(s1)CCC2 (centres unmarked)  solubility (PBS 1% DMSO; 10 min): 75.4 µM
O=C(Nc1ccc2ccccc2c1)C1CC2(CC2)C1  solubility (kinetic solubility; PBS with 2% DMSO; 2 h, pH 7.4, 25 °C, mean of incubations): 3 µM
CCCCCCC1CCC/C1=N\NC(N)=S (centres unmarked)  solubility (PBS; pH 7.4, 23 °C, 1% DMSO): 1.3 µM
CN(C)C(=O)c1ccc(COC(=O)N[c-]2cccc2)cc1.[Fe+2].c1cc[cH-]c1  solubility (absorbance; RPMI medium with 5% FBS; 1% DMSO): > 200 µM
CCC1(CC)CC(=O)N(C2CCOc3ccc(C(=O)NC4CC(C)(C)Oc5ccccc54)cc32)C(=N)N1 (centres unmarked)  solubility (simulated gastric fluid; pH 2): ≥ 100 µM
O=C(NCc1ccc2c(c1)CN(C(=O)c1cc(-c3ccccc3)no1)C2)C1C=CC=CC=C1  solubility (UV; DPBS; 18 h, room temperature): 1.02 ± 0.3 µM
CC(=O)O[C@H]1C(=O)[C@@]2(C)[C@H]([C@H](OC(=O)c3ccccc3)[C@]3(O)C[C@H](OC(=O)[C@H](OCOP(=O)(O)O)[C@@H](NC(=O)c4ccccc4)c4ccccc4)C(C)=C1C3(C)C)[C@]1(OC(C)=O)CO[C@@H]1C[C@@H]2O  solubility (HPLC, saturated solution; simulated gastric fluid; 30 s, pH 1.2): 24 µg/mL
CC(C)(C)NC(=O)c1ccccc1  solubility (PBS; pH 7.4, 25 °C, 2% DMSO): 312 µM
O=C1Nc2cc(I)ccc2C1=Cc1cc(Br)c(O)c(Br)c1  solubility (AlphaScreen buffer; aqueous buffer, 7.5% DMSO; pH 7.3): 163 ± 14 µM
FC(F)(F)C1(c2ccc(CN3CCN(C(c4ccccc4)c4ccc(Cl)cc4)CC3)cc2)CC1 (centres unmarked)  solubility (PBS; pH 7.4, 25 °C, 2% DMSO): 4 µM
O=C(Nc1ccc2ccccc2c1)C1CC2(CC2)CO1 (centres unmarked)  solubility (kinetic solubility; PBS with 2% DMSO; 2 h, pH 7.4, 25 °C, mean of incubations): 360 µM
CN(C)S(=O)(=O)c1ccc(S(=O)(=O)N2CCC(n3c(=O)[nH]c4ccccc43)CC2)cc1  solubility (HPLC; Miglyol 912; 24 h, 20 °C): 2 µg/mL
O=c1c2ccccc2[se]n1CCCCCCn1[se]c2ccccc2c1=O  solubility (shake-flask, RP-HPLC; PEG 200; 24 h, 25 °C): 2950 ± 70 µg/mL
OC[C@H]1O[C@@H](n2cnc3c(SCc4ccccc4)nc(Cl)nc32)C[C@@H]1O  solubility (UV absorbance; culture medium; stock diluted to 0.05 mM): 21.6 µM
Cc1cc(C(=O)N[C@@H](CC(=O)NC(C)(C)C)C(=O)NCCNC(=O)c2cc(-c3ccccc3)ccn2)no1  solubility (aqueous buffer; pH 7.4): 72 µg/mL
O=C1Nc2ccc(I)cc2C1=Cc1ccc(C(=O)O)cc1  solubility (AlphaScreen buffer; aqueous buffer, 7.5% DMSO; pH 7.3): 356 ± 18 µM
CCCCCCCC/C=C/CCCCCCCC(=O)[O][Pt-2]1([OH])([Cl])([NH+]=C(CC)N(C)CCNc2c3ccccc3[nH+]c3ccccc23)[NH2+]CCC[NH2+]1.O=[N+]([O-])[O-].O=[N+]([O-])[O-]  solubility (water): ~12.5 µM
O=C(NNCc1ccccc1)C1(C(F)(F)F)CCC1  solubility (PBS; 2 h, pH 7.4, 25 °C): 371 µM
O=C(Nc1ccc2ccccc2c1)C1CC2(CCC2)CO1 (centres unmarked)  solubility (kinetic solubility; PBS with 2% DMSO; 2 h, pH 7.4, 25 °C, mean of incubations): 118 µM
Cc1[nH]nc2c1N=C(c1ccccc1Cl)c1cnc(N3CCOCC3)cc1N2  solubility (aqueous buffer; pH 4.5): 2.1 µg/mL
CC(C)(C)C(=O)Nc1ccccc1  solubility (PBS; pH 7.4, 25 °C, 2% DMSO): 454 µM
CC1CCC2C(C)C(OC(=O)CCC(=O)OCCOCCOC(=O)N3CCC(Nc4ccc(S(=O)(=O)NC(=O)c5ccc(N6CCN(CC7=C(c8ccc(Cl)cc8)CC(C)(C)CC7)CC6)cc5Oc5cnc6[nH]ccc6c5)cc4[N+](=O)[O-])CC3)OC3OC4(C)CCC1C32OO4 (centres unmarked)  solubility: 2.76 µg/mL
Cc1cc(C(=O)N[C@@H](CC(=O)NC(C)(C)C)C(=O)NCCNC(=O)c2cccc(-n3cccn3)c2)no1  solubility (aqueous buffer; pH 7.4): > 110 µg/mL
CC(C)N(Cc1ccccc1)C(=O)C1(C(F)(F)F)CC1  solubility (PBS; pH 7.4, 25 °C, 2% DMSO): 276 µM
O=C1Nc2ccc(I)cc2C1=Cc1ccc(-c2ccc(C(F)(F)F)cc2)cc1  solubility (AlphaScreen buffer; aqueous buffer, 7.5% DMSO; pH 7.3): 1.7 ± 0.1 µM
CC(C)N(Cc1ccccc1)C(=O)C1(C(F)(F)F)CCC1  solubility (PBS; 2 h, pH 7.4, 25 °C): 233 µM
Cc1ncc2[nH]c(=O)n(-c3cnc(Oc4cccc5c4C(C)(C)CO5)c(Cl)c3)c2n1  solubility (simulated gastric fluid; pH 2): 153 µM
CN(Cc1ccc(C2(C(F)(F)F)CCC2)cc1)Cc1cccc2ccccc12  solubility (PBS; 2 h, pH 7.4, 25 °C): 8 µM
O=C(N[c-]1cccc1)OCc1ccc(C(=O)O)cc1.[Fe+2].c1cc[cH-]c1  solubility (absorbance; PBS; pH 7.4, 1% DMSO): > 200 µM
CC1(C)C(=CC=C2CCCC(C=CC3=[N+](CCC[N+](C)(C)C)c4ccc(S(=O)(=O)O)cc4C3(C)C)=C2SCCOCCOCCC(=O)O)N(CCC[N+](C)(C)C)c2ccc(S(=O)(=O)O)cc21  solubility (PBS with 30% FBS; pH 7.4, 50 mM HEPES): 53000 µg/mL

Excerpt of the above:
O=C(NNCc1ccccc1)C1(C(F)(F)F)CCC1  solubility (PBS; 2 h, pH 7.4, 25 °C): 371 µM
O=C(Nc1ccc2ccccc2c1)C1CC2(CCC2)CO1 (centres unmarked)  solubility (kinetic solubility; PBS with 2% DMSO; 2 h, pH 7.4, 25 °C, mean of incubations): 118 µM
Cc1[nH]nc2c1N=C(c1ccccc1Cl)c1cnc(N3CCOCC3)cc1N2  solubility (aqueous buffer; pH 4.5): 2.1 µg/mL
